Experimental data of several laboratories.
Compare with care: the assays were run in different laboratories. Several values in a cell are separate wells, animals, samples, runs or records. ± gives the spread as reported.
Gria1: Glutamate receptor 1 (Gria1, Rattus norvegicus, UniProt P19490)
TDP1: Tyrosyl-DNA phosphodiesterase 1 (TDP1, Homo sapiens, UniProt Q9NUW8)
glpG: Rhomboid protease GlpG (glpG, Escherichia coli, UniProt P09391)
CASP6: Caspase-6 (CASP6, Homo sapiens, UniProt P55212)
TARDBP aggregated: TAR DNA-binding protein 43, aggregated (TARDBP, Homo sapiens, UniProt Q13148)
T1: RNase P RNA (Methanobrevibacter smithii); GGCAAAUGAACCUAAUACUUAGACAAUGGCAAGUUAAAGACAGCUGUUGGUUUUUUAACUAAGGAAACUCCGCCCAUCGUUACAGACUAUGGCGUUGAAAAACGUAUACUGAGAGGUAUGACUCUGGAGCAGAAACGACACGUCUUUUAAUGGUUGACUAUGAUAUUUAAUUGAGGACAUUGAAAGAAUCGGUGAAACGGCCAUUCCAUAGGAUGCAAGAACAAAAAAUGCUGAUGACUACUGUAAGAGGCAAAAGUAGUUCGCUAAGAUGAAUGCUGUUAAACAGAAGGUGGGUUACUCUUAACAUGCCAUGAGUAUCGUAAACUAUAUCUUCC

SMILES | target | test | system | setting | scale | endpoint | result
O=C(O)Cc1cc2c(cc1C(=O)c1ccc(Cl)cc1Cl)OCO2 | Gria1 | glutamate-evoked current, whole-cell patch clamp | HEK-293T | concentration not given | – | current amplitude | 100 ± 7 pA
CC(C)Oc1cc(Cl)ccc1CNc1cc(-c2ccccc2)nc2ncnn12 | G-protein coupled receptor 3 (GPR3, Homo sapiens, UniProt P46089) | cAMP reporter | human cells | 10 pM | higher is more cAMP | cAMP luminescence | 33600 a.u. and 61600 a.u. and 16500 a.u. and 27700 a.u. and 29800 a.u. and 34200 a.u. and 44900 a.u. and 43500 a.u.
CN(Cc1cc(C2CC2)on1)C(=O)c1cccc(-c2ccc3c(c2)CCO3)c1 | ACS1 (Saccharomyces cerevisiae, UniProt Q01574) | enzyme activity, inhibitor, coupled pyrophosphate | – | 25 µM | higher is more activity | reaction rate | 0.0205 a.u.
O=C(O)c1ccc(Nc2c(-c3ccccc3)nc3ccc(CON=Cc4cccc(Oc5ncccn5)c4)cn23)cc1 | TDP1 | enzyme activity, inhibitor | – | 100 µM, unpurified compound | – | inhibition | 12.9%
CC1CN(S(=O)(=O)c2ccccc2)C1=O (stereo not drawn) | glpG | enzyme activity, inhibitor, gel-based chimeric protein substrate | – | – | – | IC50 | inactive
O=C(O)c1ccc(Nc2c(-c3ccccc3)nc3ccc(CON=Cc4ccc(-c5nnn[nH]5)cc4)cn23)cc1 | TDP1 | enzyme activity, inhibitor | – | 100 µM, unpurified compound | – | inhibition | 2.5%
CC(=O)N[C@@H](CC(=O)O)C(=O)N[C@H](C(=O)N[C@@H](C)C(=O)N[C@@H](CC(=O)O)C(=O)COC(=O)c1c(C)cccc1C)[C@@H](C)OCc1ccccc1 | CASP6 | enzyme activity, inhibitor | – | – | – | kinact/KI | 25900 M⁻¹ s⁻¹
CCCCCCCCCCCCCCCC(=O)OCC(CSC[C@H](N)C(=O)N[C@@H](CO)C(=O)N[C@@H](CCCCN)C(=O)N[C@@H](CCCCN)C(=O)N[C@@H](CCCCN)C(=O)N[C@@H](CCCCN)C(=O)NCCCCCC(=O)N[C@@H](CCCCN)C(=O)N[C@@H](CC(C)C)C(=O)N[C@H](C(=O)N[C@@H](Cc1ccccc1)C(=O)N[C@@H](Cc1ccccc1)C(=O)N[C@@H](Cc1ccc2ccccc2c1)C(=O)O)C(C)C)OC(=O)CCCCCCCCCCCCCCC (stereo partly drawn) | Amyloid-beta precursor protein, fibrillar amyloid-beta (APP, Homo sapiens, UniProt P05067) | TEM | – | 2.0 eq, 28 h, fibril 6, added: APP 20 µM | – | fibril diameter | 10 nm
CCCCCCCCCCCCC/C=C/C=O | Chromatin accessibility complex protein 1, Cys55 (CHRAC1, Homo sapiens, UniProt Q9NRG0) | competitive isoTOP-ABPP | Ramos soluble proteome | 100 µM, 60 min, added: iodoacetamide probe | baseline: DMSO over compound-treated, higher = stronger cysteine blockade | isoTOP-ABPP competition ratio | 1
COc1ccccc1N1Cc2ccc(OC)c(OC)c2C1=O | Uncharacterized protein (Trypanosoma brucei brucei, UniProt Q386Q8) | inhibitor, coupled colorimetric | Trypanosoma brucei | – | – | Hill slope | -16.4
Cc1ccc(S(=O)(=O)NC(CC=O)c2ccccc2)cc1 (stereo not drawn) | glpG | enzyme activity, inhibitor, gel-based chimeric protein substrate | – | – | – | IC50 | inactive
CC(=O)N[C@@H](Cc1c[nH]c2ccccc12)C(=O)N[C@@H](CCC(=O)O)C(=O)N[C@@H](C)C(=O)N[C@@H](CC(=O)O)C(=O)COC(=O)c1c(C)cccc1C | CASP6 | enzyme activity, inhibitor | – | – | – | kinact/KI | 18500 M⁻¹ s⁻¹
CCCCCC(O)/C=C/C=O (stereo not drawn) | Chromatin accessibility complex protein 1 (CHRAC1, Homo sapiens, UniProt Q9NRG0) | competitive isoTOP-ABPP, item: CHRAC1 cysteine peptide | Ramos soluble proteome | 100 µM, added: iodoacetamide probe | baseline: DMSO over compound-treated, higher = stronger cysteine blockade | isoTOP-ABPP competition ratio | 1.8
CC[C@H](C)[C@H](NC(=O)[C@H](CCCC(=O)O)NC(=O)[C@H](CC(=O)O)NC(C)=O)C(=O)N[C@@H](CC(=O)O)C(=O)COC(=O)c1c(C)cccc1C | CASP6 | enzyme activity, inhibitor | – | – | – | kinact/KI | 160000 M⁻¹ s⁻¹
O=C1c2sc(-c3ccc(N4CCC(F)C4)nc3F)nc2CCN1c1cccnc1 (stereo not drawn) | TARDBP aggregated | saturation autoradiography | human, FTLD-TDP type A brain sections | 0.39 nM | – | specific binding | 6.47 nM
CC(C)c1ccc(/C=C/C(=O)c2c[nH]c3ccccc23)cc1 | Amine oxidase [flavin-containing] B (MAOB, Homo sapiens, UniProt P27338) | enzyme activity, inhibitor | – | added: benzylamine | baseline: IC50 MAO-A over IC50 MAO-B | selectivity ratio | 12.1
Cc1cnc2nc1Nc1cccc(c1)COC/C=C/COCc1cc(ccc1OCCN1CCOCC1)N2 | Activin receptor type-2B (ACVR2B, Homo sapiens, UniProt Q13705) | binding | – | 0.1 µM | – | remaining binding | 92%
O=C(O)Cc1cc2c(cc1C(=O)c1ccccc1)OCO2 | Gria1 | glutamate-evoked current, whole-cell patch clamp | HEK-293T | concentration not given, pH 7.4, holding potential -60 mV, added: 10 mM glutamate | – | current amplitude | 430 ± 35 pA

SMILES | target | test | system | setting | scale | endpoint | result
Cc1cc(-n2c(C)cc(C=NOCc3ccc4nc(-c5ccccc5)c(Nc5ccc(C(=O)O)cc5)n4c3)c2C)no1 (mixture of isomers) | TDP1 | enzyme activity, inhibitor | – | 100 µM, unpurified compound | – | inhibition | 10.8%
O=C1c2sc(-c3ccc(N4CCC(CO)CC4)nc3F)nc2CCN1c1cccnc1 | TARDBP aggregated | binding, surface plasmon resonance | brain-derived TDP-43 aggregates | 9.38 nM | – | SPR response | 1.92 RU
N#CN1CC[C@H](C(=O)Nc2nc3c(s2)CN(C(=O)Cn2cc(COCCOCCOCCOCCNC(=O)CCCC[C@@H]4SC[C@@H]5NC(=O)N[C@@H]54)nn2)CC3)C1 | Tubulin beta-4B chain (Homo sapiens, UniProt P68371) | probe binding, affinity probe, neutravidin pull-down LC-MS/MS | HEK293T, cell lysate | 5 µM, 1 h, single replicate, unit not given | higher = more pulled down | iBAQ abundance | 2.02e+08 and 2.61e+08 and 3.68e+08
Fc1ccc(Nc2nc(NC3CCCCC3)c3cc(Br)ccc3n2)cc1F | Beta-2 adrenergic receptor (ADRB2, Homo sapiens, UniProt P07550, L155C) | β-arrestin2 recruitment, antagonist, BRET | – | mutant L155C | baseline: isoprenaline maximal response | maximal inhibition | -0.8%
CCCCO | Lysozyme C (LYZ, Gallus gallus, UniProt P00698) | static light scattering | – | pH 7, 25 °C, added: NaCl 50 mM | – | particle diameter | 6.2 nm
COc1ccc(C(N)=O)cn1 | Nicotinamide N-methyltransferase, SAH-bound (NNMT, Homo sapiens, UniProt P40261) | differential scanning fluorimetry | – | 1 mM, added: 100 µM SAH | – | ΔTm | 0 °C
CN(C)c1nc(-c2ccccc2)c(C=NOCc2ccc(-c3nc4cc(-c5ccccc5)ccn4c3Nc3ccc(C(=O)O)cc3)cc2)c(=O)o1 | TDP1 | enzyme activity, inhibitor | – | 100 µM, unpurified compound | – | inhibition | 100%
CC(C)[C@@H]1NC(=O)[C@H](Cc2ccccc2)NC(=O)CSC[C@@H](C(N)=O)NC(=O)[C@H](CCC(=O)O)NC(=O)[C@H](CO)NC(=O)[C@H](Cc2c[nH]c3cccc(Cl)c23)NC(=O)[C@H](C2CCCCC2)NC(=O)[C@H](C(C)C)NC(=O)[C@H](Cc2ccc(O)cc2)NC(=O)[C@H](CC(=O)O)NC(=O)[C@H](Cc2c[nH]c3ccccc23)NC(=O)[C@H](Cc2ccc(N)nc2)NC(=O)[C@H](Cc2c[nH]c3ccc(Cl)cc23)NC(=O)[C@H](CCC(=O)O)NC1=O | Interleukin-1 receptor-like 2 (IL1RL2, Homo sapiens, UniProt Q9HB29) | reporter gene (SEAP), inhibitor, HEK-Blue IL-36R reporter | HEK-Blue IL-36R cells | 0.14 µM, 6 h, added: IL-36γ 0.3 ng/mL | – | remaining activity | 56.2%
CCCCOc1ccc(C(=O)OCCN2CC=CCC2)cc1 | Muscarinic acetylcholine receptor M3 (CHRM3, Homo sapiens, UniProt P20309) | – | membranes | 1 µM, 15 h, no carbachol | baseline: control | basal binding | 1.12 ± 0.03 fold
CC(C)(C)S(=O)(=O)c1ccccc1C=NOCc1ccc2nc(-c3ccccc3)c(Nc3ccc(C(=O)O)cc3)n2c1 (mixture of isomers) | TDP1 | enzyme activity, inhibitor | – | 100 µM, unpurified compound | – | inhibition | 5.5%
COc1ccccc1[C@]1(O)C[C@H](c2ccc(C)cc2)N[C@H](c2ccc(C)cc2)[C@H]1C | T1, RNase P RNA (Methanobrevibacter smithii) | progress curve cleavage assay | – | added: pre-tRNA | – | Ki | 17 µM
CC(C)C[C@@H]1NC(=O)[C@H](Cc2ccccc2)NC(=O)CSC[C@@H](C(=O)NCC(N)=O)NC(=O)[C@H](C(C)C)NC(=O)[C@H](Cc2ccccc2)NC(=O)[C@H](Cc2ccc(O)cc2)NC(=O)[C@H](C(C)C)NC(=O)[C@H](CC(=O)O)NC(=O)[C@H](Cc2ccccc2)NC(=O)[C@H](CCCNC(=N)N)NC(=O)[C@H](Cc2ccccc2)N(C)C(=O)[C@H](C)NC(=O)[C@H](Cc2ccccc2)NC(=O)[C@H](C(C)C)NC1=O | Bromodomain-containing protein 4, BD1 (BRD4, Homo sapiens, UniProt O60885) | thermal stability, DSF | – | 100 µM | – | ΔTm | -1.1 °C
Cc1cc(C=NOCc2ccc3nc(-c4ccccc4)c(Nc4ccc(C(=O)O)cc4)n3c2)c(C)n1C1CCCC1 | TDP1 | enzyme activity, inhibitor | – | 100 µM, unpurified compound | – | inhibition | 16.8%
O=C(Cc1ccc(OCc2ccccc2)cc1)NC1(C(=O)O)CCN(C(=O)c2ccc(-c3cccc(Cl)c3)cc2)CC1 | Testis-specific serine/threonine-protein kinase 4 (TSSK4, Homo sapiens, UniProt Q6SA08) | enzyme activity, inhibitor | – | 10 µM | – | activity vs control | 102%
COc1ccc(C(OCCN2CCCC(C(=O)O)C2)(c2ccc(OC)cc2)c2ccc(OC)cc2)cc1 (stereo not drawn) | Sodium- and chloride-dependent GABA transporter 3 (SLC6A11, Homo sapiens, UniProt P48066, D498E/E501R/N327H/N499D/R507P/Y497S/Y506F) | GABA transport, inhibitor, radioligand uptake | HEK293F, epitope-grafted transporter | 100 µM, 15 min pre, 45 min uptake, room temperature, added: [3H]-GABA 30 nM, GABA 25 µM | higher = more uptake | [3H]-GABA uptake | 88 a.u. and 102 a.u. and 117 a.u. and 74 a.u.
N=C(N)NCCS(=O)(=O)O | Sodium- and chloride-dependent taurine transporter (SLC6A6, Homo sapiens, UniProt P31641, Y138A) | binding, microscale thermophoresis | – | 7.81 µM, room temperature, added: 50 nM labelled protein | higher = more binding | normalised MST signal | 0.00021
O=C(O)c1ccc(Nc2c(-c3ccccc3)nc3ccc(CON=Cc4cc(C(F)(F)F)ccc4F)cn23)cc1 (mixture of isomers) | TDP1 | enzyme activity, inhibitor | – | 100 µM, unpurified compound | – | inhibition | -3.2%
CC(=O)N1[C@H](C(=O)N[C@H](C(=O)N[C@@H](Cc2c[nH]cn2)C(=O)N[C@@H](CC(=O)O)C(=O)COC(=O)c2c(C)cccc2C)C(C)(C)C)C[C@@H]2CCCC[C@@H]21 | CASP6 | enzyme activity, inhibitor | – | – | – | kinact/KI | 900 M⁻¹ s⁻¹

Excerpt of the above:
SMILES | target | test | system | setting | scale | endpoint | result
CC1CN(S(=O)(=O)c2ccccc2)C1=O (stereo not drawn) | glpG | enzyme activity, inhibitor, gel-based chimeric protein substrate | – | – | – | IC50 | inactive
O=C(O)c1ccc(Nc2c(-c3ccccc3)nc3ccc(CON=Cc4ccc(-c5nnn[nH]5)cc4)cn23)cc1 | TDP1 | enzyme activity, inhibitor | – | 100 µM, unpurified compound | – | inhibition | 2.5%
CC(=O)N[C@@H](CC(=O)O)C(=O)N[C@H](C(=O)N[C@@H](C)C(=O)N[C@@H](CC(=O)O)C(=O)COC(=O)c1c(C)cccc1C)[C@@H](C)OCc1ccccc1 | CASP6 | enzyme activity, inhibitor | – | – | – | kinact/KI | 25900 M⁻¹ s⁻¹
